Assay results from different studies.
Every numbered part comes from another study and shows a few of its results, in no order. Substitutions count along the parent as printed.

Set 1
Target: Centromere-binding protein 1, full length, N-terminal tag (CBF1, Saccharomyces cerevisiae, UniProt P17106, residues 1-351)
UniProt P17106, sequence (whole entry, looked up): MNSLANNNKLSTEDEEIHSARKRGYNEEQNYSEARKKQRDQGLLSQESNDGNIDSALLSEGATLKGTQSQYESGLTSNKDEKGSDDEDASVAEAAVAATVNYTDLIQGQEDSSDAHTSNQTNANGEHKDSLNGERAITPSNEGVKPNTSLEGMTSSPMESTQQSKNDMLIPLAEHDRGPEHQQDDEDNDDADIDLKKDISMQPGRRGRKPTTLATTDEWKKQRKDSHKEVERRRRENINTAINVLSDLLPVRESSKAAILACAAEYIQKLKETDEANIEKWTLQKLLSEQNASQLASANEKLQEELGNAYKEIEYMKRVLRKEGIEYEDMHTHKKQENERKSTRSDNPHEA
Technique: protein-binding microarray
Form: double-stranded DNA, one strand shown
Matrix: in vitro
Concentration: 0.8 µM
Notes: whole 60-bp probe, no competitor
Direction: higher = stronger binding
Measurement: fluorescence intensity
Strand = GAATTTCTACGTAACCACGTTGTTTACGTACTATAGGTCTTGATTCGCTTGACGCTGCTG; value = 693 a.u.
Strand = CTAATTAATGAAAGTCACAGGAGACATTTTTACTTCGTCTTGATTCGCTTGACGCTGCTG; value = 583 a.u.
Strand = CTATACTATCAATTAAACGTGCACTAGGTGCTGTTCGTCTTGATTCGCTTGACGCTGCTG; value = 571 a.u.
Strand = TGTACGAAGCTATGTGGTGTTACTATAGTAGTTAGGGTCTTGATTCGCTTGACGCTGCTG; value = 500 a.u.
Strand = GAAGTGCCCTCTGGGTAACAGGTGAATATGGAGTAGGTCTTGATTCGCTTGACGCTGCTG; value = 496 a.u.
Strand = GAATGGATAAGCTGTCATGCTACATTAGCAATATAGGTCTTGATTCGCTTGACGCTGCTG; value = 560 a.u.
Strand = TGTACGAAGCTATTATGCGTGCGTATAGTAGTTAGGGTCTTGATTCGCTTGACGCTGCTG; value = 542 a.u.
Strand = GAATCATCATCAATCCTCGTGTCTCTGCTTACATAGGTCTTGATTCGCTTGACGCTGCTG; value = 568 a.u.
Strand = GAACTGAAAGCGGCGCACGAGAACGCGCTTTTCTAGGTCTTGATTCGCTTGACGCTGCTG; value = 566 a.u.
Strand = CCTAACTACTATAGTCACATAAGATAGCTTCGTACAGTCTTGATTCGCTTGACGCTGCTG; value = 537 a.u.
Strand = CTACTATAAAATTTTCACATGCATTATATAGACTTCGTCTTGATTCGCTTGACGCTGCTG; value = 641 a.u.
Strand = GAAGGCTCAAGAATTTACGTGGTGCCCAATCAATAGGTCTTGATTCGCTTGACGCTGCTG; value = 475 a.u.
Strand = CTACAGAAAATTGTTATCGTGATTGAGAACTGATTCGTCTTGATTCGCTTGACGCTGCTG; value = 644 a.u.
Strand = GAAAGTGCTAATAATCACATGGTTCGTAGAGGGTAGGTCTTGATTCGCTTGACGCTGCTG; value = 2030 a.u.
Strand = GAAGAAAGGAGACGTCACGTCACTTAGGCAAGATAGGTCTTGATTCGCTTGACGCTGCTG; value = 765 a.u.
Strand = GAACGCACTTTGTAACTGATGGCGAAGAGCAAATAGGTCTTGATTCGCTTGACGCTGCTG; value = 513 a.u.
Strand = CTAAAGAAACGAATTCACCTGATTGCAGCTGCATTCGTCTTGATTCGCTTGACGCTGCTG; value = 605 a.u.

Set 2
Target: ABI1, truncated, D143A, DHFR fusion (Arabidopsis thaliana)
Technique: DHFR PCA, deep sequencing
Matrix: yeast
Notes: methotrexate growth selection, single substitutions
With: (+)-ABA 0 µM
Baseline: wild-type fitted maximum
Direction: higher = stronger binding
Measurement: relative binding score
Starting sequence: PYL1, truncated, DHFR fusion (Arabidopsis thaliana); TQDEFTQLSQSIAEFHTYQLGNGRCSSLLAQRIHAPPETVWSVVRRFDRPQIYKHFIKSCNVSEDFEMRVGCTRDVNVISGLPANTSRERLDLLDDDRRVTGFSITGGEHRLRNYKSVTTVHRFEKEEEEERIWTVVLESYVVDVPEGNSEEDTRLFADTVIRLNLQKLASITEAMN
Change = L94F; value = 30.6%
Change = T101H; value = -3.01%
Change = E130V; value = 20.7%
Change = L156T; value = 13.8%
Change = L94P; value = -5.31%
Change = R99Q; value = 16.5%
Change = S117K; value = -11.4%
Change = V142T; value = -1.25%
Change = H55Q; value = 22.9%
Change = A35W; value = -0.217%
Change = R163P; value = 6.77%
Change = K58N; value = 0.953%
Change = F56Y; value = -2.1%
Change = F47Y; value = -2.87%
Change = Q7N; value = 15.5%
Change = R90V; value = 10.5%
Change = E147V; value = 9.63%
Change = E174R; value = -2.94%

Set 3
Target: RING finger protein unkempt homolog, zinc fingers 1-6, GST-SBP tag (UNK, Homo sapiens, UniProt Q9C0B0, residues 30-357)
UniProt Q9C0B0, sequence (30-357, looked up): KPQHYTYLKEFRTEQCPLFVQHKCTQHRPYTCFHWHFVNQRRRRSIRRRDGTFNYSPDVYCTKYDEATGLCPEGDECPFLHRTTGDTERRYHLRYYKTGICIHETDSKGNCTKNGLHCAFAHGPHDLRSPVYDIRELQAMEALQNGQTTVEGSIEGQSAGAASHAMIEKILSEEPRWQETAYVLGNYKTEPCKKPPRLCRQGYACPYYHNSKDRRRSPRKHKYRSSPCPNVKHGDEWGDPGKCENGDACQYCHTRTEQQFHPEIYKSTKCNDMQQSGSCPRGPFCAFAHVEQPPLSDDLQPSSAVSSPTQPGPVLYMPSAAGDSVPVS
Technique: RNA Bind-n-Seq
Form: RNA
Matrix: in vitro
Concentration: not given
Notes: RNA with constant flanks, human and mouse sites, ends assumed
Baseline: input RNA pool
Direction: higher = stronger binding
Measurement: bound/input enrichment
Strand = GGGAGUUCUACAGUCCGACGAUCGAGGCCUGGGGGACCCCUGGCUCUGGGCCGGGCCUGGGGCUCCGAAAUUCCAAGGCCCAGACUUGCGGGGGGUGGGGGGGUAUCCAGAAUUGGUUGUAAAUACUUUGCAUAUUGUCUGAUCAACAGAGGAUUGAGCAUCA; value = 0.325 ratio
Strand = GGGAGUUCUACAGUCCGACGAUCUUAGAUUUCAUUGGUAAUAAUGAGUCUCCACGUAAAAAAUUCCCCCCAAUGACAUCUUACCAUAGGAUGCUAUUACACAGAGUAGCCGCUUACUUUGGAUUAGACCACAAUGUUGAUCAGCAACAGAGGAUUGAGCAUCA; value = 1.29 ratio
Strand = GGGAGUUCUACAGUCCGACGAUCGAUGAACCGGCCAUCAUUGUACAUCCAAAUUGGGCUGCAAAAAGUGGCAAGUUUGAUUGUAGCAUCAUGUCUUUGAGUGUCCUAUUGGACUACAGAUUAGAGGAUAAUAAAGAACAUUCACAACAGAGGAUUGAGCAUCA; value = 0.255 ratio
Strand = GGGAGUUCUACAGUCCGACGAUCAUGCAGAGCAAGAGAAAAGGAGAAGGGGGCACAGACCCGGAACUAGAGGGUGAGCUAGAUAGCCGGUAUGCCCGCCGCAGGUACUACCGACUUUUGCAGAGUCCUCUGUGCGCAGGAUGUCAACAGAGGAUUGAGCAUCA; value = 0.642 ratio
Strand = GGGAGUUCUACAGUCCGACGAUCAGCUGUGAGGGAUACGGAAGUUUGAUCAAUAUUGUCUUAACAUGCUUCAGAUAAAUCAGAUGUUUUCGGUGCAGCUGAGUCUUGGCGAGCAGACAUGGGAAUCCGAAGGGAGCAGUAUAACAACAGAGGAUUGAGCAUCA; value = 0.368 ratio
Strand = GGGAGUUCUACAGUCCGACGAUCUUUCAGUGUCUGCUGCACAGAGCUUUACAUCCCCGGGAGCCUCUACCCCCAAUUCAGCAGCAUAUUUGGAAUAUGCUGAAUCCUCCCGCUGAGGUGACAACAAAAAGUCAGAUUCCUCUCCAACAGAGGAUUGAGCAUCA; value = 0.199 ratio
Strand = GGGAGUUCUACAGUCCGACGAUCGAAGGGGUCUUGGUGUUUAAAGCAUAAGUUACCUGUUUGCACUGUUUUCAAAUAGGAAACAAUAGUGGGCACGGUGAACAUCUAAUGUAAACGUGUGUUUUCUUUUGUCAUGCUCUUGAGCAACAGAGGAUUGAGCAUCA; value = 0.181 ratio
Strand = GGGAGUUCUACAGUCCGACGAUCACCAUUUUCGCGGUUCAGGCUUUGUGUGUAGUUCACUUACGGUAUUAAAUUAUUAUUCUGCUUAGCUUAUAAUAAGGAUAAUUGCAUUUAAAGAGGUUACUGAAUGUUACUCUGAAACUUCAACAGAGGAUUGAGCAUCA; value = 0.686 ratio
Strand = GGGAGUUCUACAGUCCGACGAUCAGUCAUGAGCCAGAGUUUGACUAUUUGAAAAGUCUAGAAAUUGAAGAAAAAAUUAAUAAAAUCAGGUGGUUACCGCAACAGAAUGCUGCUCAUUUUCUACUCUCUACAAAUGAUAAAACUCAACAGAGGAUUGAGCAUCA; value = 1.2 ratio
Strand = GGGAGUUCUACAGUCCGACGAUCCAGAAACUGGAAGAGAUGGUCACCCGCUUAGAUCAAGAAGUAGCUGAAGUUGAUAAAAACAUAGAACUUUUGAAAAAGAAGGAUGAAGAACUAAGUUCUGCUCUGGAGAAAAUGGAAAAUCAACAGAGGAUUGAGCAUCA; value = 1.32 ratio
Strand = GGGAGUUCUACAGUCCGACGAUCCCCAUGAUUUCUUCAGAAAUGAUUUUCUAGAAGUUGUGAACUUCUUGAAAAGCUUGACAUUAAAGAGUGAAGAUGAAAAGACUGAAUUUUUCAAAUUUCUGCUGGACCGAGUGAGCUGCCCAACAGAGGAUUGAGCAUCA; value = 0.215 ratio

Set 4
Target: Ras GTPase-activating protein-binding protein 1, full length (G3BP1, Homo sapiens, UniProt Q13283)
UniProt Q13283, sequence (whole entry, looked up): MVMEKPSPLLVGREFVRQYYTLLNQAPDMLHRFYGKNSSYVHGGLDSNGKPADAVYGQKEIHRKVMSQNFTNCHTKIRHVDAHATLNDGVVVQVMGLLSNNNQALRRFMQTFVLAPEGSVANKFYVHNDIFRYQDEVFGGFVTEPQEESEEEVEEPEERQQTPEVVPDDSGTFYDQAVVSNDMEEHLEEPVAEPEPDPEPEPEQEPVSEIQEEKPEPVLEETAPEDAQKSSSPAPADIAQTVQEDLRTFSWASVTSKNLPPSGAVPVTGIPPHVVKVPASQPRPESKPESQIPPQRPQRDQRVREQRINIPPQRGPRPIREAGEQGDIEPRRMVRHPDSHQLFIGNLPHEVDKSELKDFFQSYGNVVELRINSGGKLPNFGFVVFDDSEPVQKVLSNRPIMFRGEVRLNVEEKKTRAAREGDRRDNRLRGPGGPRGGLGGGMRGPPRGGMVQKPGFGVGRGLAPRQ
Technique: RNA Bind-n-Seq
Form: RNA
Matrix: in vitro
Concentration: 200 nM
Notes: whole 134-nt RNA, ends assumed
With: 150 mM LiCl
Baseline: input library
Direction: higher = stronger binding
Measurement: log2 enrichment
Library: 7-deaza-guanosine replaces G
Strand = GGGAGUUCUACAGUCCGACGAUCCUCAAGUCCUGUGCUACACAUCGUAUGUACCGAAUCGGAGGAAAAAAAGGAGGAAAGUAUUAUGUUACGCCGUUCGGAUCUGCACUUCCAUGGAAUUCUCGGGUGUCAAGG; value = -0.407
Strand = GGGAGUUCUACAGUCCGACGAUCGCGGACCGAGAAAGUCGUUACGAGGAAGAAGAAGAACAAAGUCGAAGUAUGAGCCGGAAGAGGAAGGCAUCUGUGCACAGUUCGGGCCGUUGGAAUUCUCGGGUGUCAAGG; value = 0.388
Strand = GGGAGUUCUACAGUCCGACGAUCAGUCCUGUGCUACACAUCGUAUGUACCGAAUCGGGGUUUGGGGUUUUUGGGGAGGGGAAAGUAUUAUGUUACGCCGUUCGGAUCUGCACUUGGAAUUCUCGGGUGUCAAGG; value = 0.455
Strand = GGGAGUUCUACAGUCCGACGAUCCCUCAAGUCCUGUGCUACACAUCGUAUGUACCGAAUCGGAAAGGUGGUUUGGAAAGUAUUAUGUUACGCCGUUCGGAUCUGCACUUCCAGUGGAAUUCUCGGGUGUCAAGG; value = -1.12
Strand = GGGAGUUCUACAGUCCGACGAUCUGAAUGCUGAGAAUGUUGCUGGUCACCAGAUUGCCUCUGAAACACAGAUCCUUGAGGGCUCUUUGGGAAUAUCUGUAAAGUCACACUGCAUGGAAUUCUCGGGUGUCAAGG; value = -0.539
Strand = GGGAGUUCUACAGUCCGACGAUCACCAUGCAGGUGGGCAUCUUUGGGAAGUGGGGCAAGGGGGGGAUAGUGAGGGGGGUAACACUUUGGGAACAGGUGGUCCCAGGUCGUUUCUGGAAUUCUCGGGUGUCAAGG; value = 0.326
Strand = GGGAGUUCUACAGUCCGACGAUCACCAUGCAAAAGGGCAUCUUUGGGAAGUGGGGCAAGGGGGGGAUAGGGAGGGGGGUAACACUUUGGGAACAGGUGGUCCCAGGUCGUUUCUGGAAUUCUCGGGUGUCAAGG; value = 0.284
Strand = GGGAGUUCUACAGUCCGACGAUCUCCUGUGCUACACAUCGUAUGUACCGAAUCGGUUUUUUGGGGUUUUUUGGUUUUUUGGGAAAGUAUUAUGUUACGCCGUUCGGAUCUGCAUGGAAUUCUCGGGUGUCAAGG; value = 0.464
Strand = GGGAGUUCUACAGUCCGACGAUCCAAGUCCUGUGCUACACAUCGUAUGUACCGAAUCGGGGAGGGGAGGGGUUUGGGGAAAGUAUUAUGUUACGCCGUUCGGAUCUGCACUUCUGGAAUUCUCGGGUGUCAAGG; value = 0.126
Strand = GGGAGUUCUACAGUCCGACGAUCAAGUCCUGUGCUACACAUCGUAUGUACCGAAUCGGAAAAAAAGGUUUUUGGUUUGGAAAGUAUUAUGUUACGCCGUUCGGAUCUGCACUUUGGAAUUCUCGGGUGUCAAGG; value = -3.14
Strand = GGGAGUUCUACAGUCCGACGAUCCCUGUGCUACACAUCGUAUGUACCGAAUCGGGGUUUUUUUGGGGUUUGGGGAAAAAGGGGAAAGUAUUAUGUUACGCCGUUCGGAUCUGCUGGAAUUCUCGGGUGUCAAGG; value = 0.134

Set 5
Target: Histone acetyltransferase KAT6A, winged helix 2, GST fusion (KAT6A, Homo sapiens, UniProt Q92794, residues 85-181)
Technique: protein binding microarray
Form: double-stranded DNA, one strand shown
Matrix: in vitro
Concentration: not given
Notes: 8-mer, flanks averaged, mean of 2 arrays, mostly near background
Baseline: not given
Direction: higher = stronger binding
Measurement: E-score
Residues (chain): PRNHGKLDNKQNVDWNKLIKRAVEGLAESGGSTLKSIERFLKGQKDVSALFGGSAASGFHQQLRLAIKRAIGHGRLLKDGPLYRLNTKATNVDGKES
Strand = AAAAAGTG; value = -0.0402
Strand = CATCCGTC; value = -0.0935
Strand = AGTCAGGG; value = -0.0932
Strand = ATTGGAGC; value = -0.0427
Strand = GACCCTTA; value = -0.119
Strand = ATGTCCTG; value = -0.00788
Strand = ACAGCCCC; value = -0.144
Strand = GAACATAC; value = -0.157
Strand = GAGGCTCC; value = 0.0149
Strand = GCAGCTGA; value = 0.116
Strand = ATGGTATA; value = -0.0601
Strand = CAGGCGTC; value = 0.129
Strand = AGTCGCGC; value = 0.166
Strand = AGGCTTAA; value = -0.0901
Strand = CCTGAGCC; value = 0.0403
Strand = CATTCATC; value = -0.117
Strand = GCCGCATA; value = 0.213
Strand = CACGACTC; value = -0.0532
Strand = CCAGTCGA; value = -0.0304
Strand = ATATCGTA; value = -0.154
Strand = AACGTCAT; value = -0.241
Strand = CCCTCCAA; value = -0.0856
Strand = CGGTTTAA; value = 0.0465
Strand = GATTTAGA; value = -0.016
Strand = ACATCGCC; value = -0.0366

Some of these lines once more (set 5):
Strand = ATATCGTA; value = -0.154
Strand = AACGTCAT; value = -0.241
Strand = CCCTCCAA; value = -0.0856
Strand = CGGTTTAA; value = 0.0465
Strand = GATTTAGA; value = -0.016
Strand = ACATCGCC; value = -0.0366
